Experimental data pooled from the literature.
Each numbered part is a random draw from the data of one study; scales do not carry over between parts. “And” joins repeats or separate records; there may be more than shown.

Block 1
SMILES: CCCCC[C@@H](O)CC(=O)N[C@H]1COC(=O)[C@H](CO)NC(=O)CNC(=O)[C@H]([C@@H](C)O)NC(=O)[C@H](Cc2ccccc2)NC(=O)[C@@H](Cc2c[nH]c3ccccc23)NC(=O)[C@@H]([C@H](C)O)NC(=O)[C@H](CC(N)=O)NC(=O)[C@@H]([C@H](C)O)NC(=O)[C@H](CC(C)C)NC(=O)[C@@H](Cc2c[nH]c3ccccc23)N(C)C(=O)CNC(=O)[C@H](CO)NC(=O)[C@@H](CO)NC1=O
Organism: Staphylococcus aureus
Strain: USA300
Tested at: 2 x MIC
30 min — viable cells: 2000 CFU/mL and 2400 CFU/mL and 2900 CFU/mL.
0 min — viable cells: 3.9e+08 CFU/mL and 4e+08 CFU/mL and 4.6e+08 CFU/mL.
It gave 500 CFU/mL and 700 CFU/mL and 400 CFU/mL for viable cells (180 min).
For 300 min: viable cells read 300 CFU/mL and 500 CFU/mL and 400 CFU/mL.
It gave 400 CFU/mL and 200 CFU/mL for viable cells (360 min).

Block 2
Cell line: mouse MPNST tumor cells
Technique: high-content nuclear imaging
Item: cell number
Tested at: 10 µM
Time: 12 h
Setting: mean of 2 replicates
Reference: plate mean
Direction: higher = more cells
`O=[N+]([O-])O[C@@H]1CO[C@H]2[C@@H]1OC[C@@H]2O` gave a nuclei count of 1.56 z-score.
For `c1ccc2c(c1)OCC(C1=NCCN1)O2` (centres unmarked), the nuclei count was -0.931 z-score.
`Cc1ccc(C23CNCC2C3)cc1` (centres unmarked) gave a nuclei count of 1.09 z-score.
The nuclei count of `NCCCCCNC1(c2ccccc2)CCCCC1` is reported as 1.4 z-score.
`CC(C)N(CCC(C(N)=O)(c1ccccc1)c1ccccn1)C(C)C` (centres unmarked) has a nuclei count of 1.34 z-score.

Block 3
Target: Eukaryotic initiation factor 4A-I (EIF4A1, Homo sapiens, UniProt P60842)
Chain of UniProt P60842 (whole entry, looked up): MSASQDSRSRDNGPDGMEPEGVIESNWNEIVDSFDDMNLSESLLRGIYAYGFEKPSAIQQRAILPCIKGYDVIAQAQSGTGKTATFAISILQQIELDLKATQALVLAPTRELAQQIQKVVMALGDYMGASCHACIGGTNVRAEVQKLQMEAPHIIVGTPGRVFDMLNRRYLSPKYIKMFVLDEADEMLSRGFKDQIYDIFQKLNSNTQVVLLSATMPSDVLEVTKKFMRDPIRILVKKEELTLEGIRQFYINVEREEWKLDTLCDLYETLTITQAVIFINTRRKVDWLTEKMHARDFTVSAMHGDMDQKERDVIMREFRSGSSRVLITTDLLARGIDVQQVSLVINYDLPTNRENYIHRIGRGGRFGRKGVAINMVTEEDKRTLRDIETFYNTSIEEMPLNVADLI
Observed: RNA clamping
Technique: fluorescence polarization
Tested at: concentration not given
Together with: FAM-labelled poly r(AG)8 RNA
Direction: higher = more clamping
For `COc1ccc([C@@]23Oc4cc(OC)cc(OC)c4[C@]2(O)c2nc[nH]c(=O)c2[C@H]3c2ccccc2)cc1`, “fluorescence polarization change” read 45.3 mP.
`COc1ccc([C@@]23Oc4cc(OC)cc(OC)c4[C@]2(O)c2nc4n(c(=O)c2[C@@H]3c2ccccc2)CCC4)cc1` — result for “fluorescence polarization change”: 39.8 mP.
For `COCCN[C@]12c3c(OC)cc(OC)cc3O[C@@]1(c1ccc(OC)cc1)[C@H](c1ccccc1)C[C@@H]2O`, “fluorescence polarization change” read 6 mP.
`COc1ccc([C@@]23Oc4cc(OC)cc(OC)c4[C@]2(O)c2nc(-c4ccccc4)[nH]c(=O)c2[C@H]3c2ccccc2)cc1` — result for “fluorescence polarization change”: 17.3 mP.
For `COCC1=N[C@@]2(O)[C@H](C(=O)N(C)OC)[C@@H](c3ccccc3)[C@]3(c4ccc(OC)cc4)Oc4cc(OC)cc(OC)c4[C@]23N1`, “fluorescence polarization change” read 65.1 mP.
Under “fluorescence polarization change”, `COC(=O)[C@H]1[C@@H](c2ccccc2)[C@]2(c3ccc(OC)cc3)Oc3cc(OC)cc(OC)c3[C@@]1(O)C2=O` is recorded as 6.4 mP.
Under “fluorescence polarization change”, `COc1ccc([C@@]23Oc4cc(OC)cc(OC)c4[C@]2(O)c2nc(-c4ccc(N(C)C)cc4)[nH]c(=O)c2[C@H]3c2ccccc2)cc1` is recorded as 5.1 mP.
For `COc1ccc(-c2nc3c(c(=O)[nH]2)[C@H](c2ccccc2)[C@@]2(c4ccc(OC)cc4)Oc4cc(OC)cc(OC)c4[C@@]32O)cc1`, “fluorescence polarization change” read 28.7 mP.
`COc1ccc([C@@]23Oc4cc(OC)cc(OC)c4[C@]2(O)c2nc(-c4ccccc4)n(C)c(=O)c2[C@H]3c2ccccc2)cc1`: “fluorescence polarization change” 40.3 mP.
Under “fluorescence polarization change”, `COC(=O)[C@H]1[C@@H](O)[C@@]2(O)c3c(OC)cc(O)cc3O[C@@]2(c2ccc(OC)cc2)[C@@H]1c1ccccc1` is recorded as 53 mP.

Block 4
Target: Cyclin-dependent kinase 2 homolog (CRK2, Plasmodium falciparum, UniProt P61075)
Chain of UniProt P61075 (whole entry, looked up): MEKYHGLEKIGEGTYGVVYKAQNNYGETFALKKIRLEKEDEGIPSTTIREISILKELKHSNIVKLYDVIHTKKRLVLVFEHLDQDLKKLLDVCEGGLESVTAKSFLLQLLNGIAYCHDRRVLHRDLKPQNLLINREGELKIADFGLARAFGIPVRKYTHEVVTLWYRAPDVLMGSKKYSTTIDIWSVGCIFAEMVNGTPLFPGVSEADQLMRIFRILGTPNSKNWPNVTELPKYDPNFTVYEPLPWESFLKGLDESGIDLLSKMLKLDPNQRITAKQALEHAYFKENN
Observed: cell-free assay
Technique: competition with immobilised ligand
Tested at: 1 µM
For `CN(C)C(=O)Cn1cc(-c2nc(C3(c4ccc(-c5cnc(N)nc5)cc4)CC3)no2)cn1`, the remaining binding was 100%.
The remaining binding of `N#Cc1ccc(Nc2ccc3[nH]c(=O)[nH]c3c2)c(Cl)c1` is reported as 100%.
The remaining binding of `CCS(=O)(=O)c1cc2cc(C[C@](O)(CC(C)(C)c3ccc(F)cc3C(N)=O)C(F)(F)F)[nH]c2cn1` is reported as 100%.

Some of these lines once more (block 3):
For `COc1ccc([C@@]23Oc4cc(OC)cc(OC)c4[C@]2(O)c2nc[nH]c(=O)c2[C@H]3c2ccccc2)cc1`, “fluorescence polarization change” read 45.3 mP.
